{"data": "Experimental data from different studies", "USP49 ZnF-UBD domain": "Ubiquitin carboxyl-terminal hydrolase 49, ZnF-UBD domain (USP49, Homo sapiens, UniProt Q70CQ1)", "note": "Compare with care: the assays were run in different laboratories. “And” joins repeats or separate records; there may be more than shown. ± gives the spread as reported.", "UniProt Q70CQ1, sequence (whole entry, looked up)": "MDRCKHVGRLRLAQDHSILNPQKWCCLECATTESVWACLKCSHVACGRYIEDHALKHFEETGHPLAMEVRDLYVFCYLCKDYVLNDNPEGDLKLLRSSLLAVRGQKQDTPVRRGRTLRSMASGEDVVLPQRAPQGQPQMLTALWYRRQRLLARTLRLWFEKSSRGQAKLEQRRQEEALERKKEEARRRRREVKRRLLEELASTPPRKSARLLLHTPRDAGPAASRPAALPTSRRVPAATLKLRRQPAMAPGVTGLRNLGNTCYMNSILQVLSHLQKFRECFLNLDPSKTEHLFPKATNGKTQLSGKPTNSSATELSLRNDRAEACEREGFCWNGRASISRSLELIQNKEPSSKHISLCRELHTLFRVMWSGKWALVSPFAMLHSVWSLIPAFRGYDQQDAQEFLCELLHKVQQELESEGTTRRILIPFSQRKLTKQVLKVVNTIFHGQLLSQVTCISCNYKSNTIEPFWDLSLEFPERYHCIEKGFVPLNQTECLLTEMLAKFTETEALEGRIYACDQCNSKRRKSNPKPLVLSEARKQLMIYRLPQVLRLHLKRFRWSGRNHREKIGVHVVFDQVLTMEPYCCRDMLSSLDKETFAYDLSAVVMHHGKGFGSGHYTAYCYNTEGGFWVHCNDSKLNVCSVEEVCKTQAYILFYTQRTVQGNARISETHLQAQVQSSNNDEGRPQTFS", "UniProt P08183, sequence (whole entry, looked up)": "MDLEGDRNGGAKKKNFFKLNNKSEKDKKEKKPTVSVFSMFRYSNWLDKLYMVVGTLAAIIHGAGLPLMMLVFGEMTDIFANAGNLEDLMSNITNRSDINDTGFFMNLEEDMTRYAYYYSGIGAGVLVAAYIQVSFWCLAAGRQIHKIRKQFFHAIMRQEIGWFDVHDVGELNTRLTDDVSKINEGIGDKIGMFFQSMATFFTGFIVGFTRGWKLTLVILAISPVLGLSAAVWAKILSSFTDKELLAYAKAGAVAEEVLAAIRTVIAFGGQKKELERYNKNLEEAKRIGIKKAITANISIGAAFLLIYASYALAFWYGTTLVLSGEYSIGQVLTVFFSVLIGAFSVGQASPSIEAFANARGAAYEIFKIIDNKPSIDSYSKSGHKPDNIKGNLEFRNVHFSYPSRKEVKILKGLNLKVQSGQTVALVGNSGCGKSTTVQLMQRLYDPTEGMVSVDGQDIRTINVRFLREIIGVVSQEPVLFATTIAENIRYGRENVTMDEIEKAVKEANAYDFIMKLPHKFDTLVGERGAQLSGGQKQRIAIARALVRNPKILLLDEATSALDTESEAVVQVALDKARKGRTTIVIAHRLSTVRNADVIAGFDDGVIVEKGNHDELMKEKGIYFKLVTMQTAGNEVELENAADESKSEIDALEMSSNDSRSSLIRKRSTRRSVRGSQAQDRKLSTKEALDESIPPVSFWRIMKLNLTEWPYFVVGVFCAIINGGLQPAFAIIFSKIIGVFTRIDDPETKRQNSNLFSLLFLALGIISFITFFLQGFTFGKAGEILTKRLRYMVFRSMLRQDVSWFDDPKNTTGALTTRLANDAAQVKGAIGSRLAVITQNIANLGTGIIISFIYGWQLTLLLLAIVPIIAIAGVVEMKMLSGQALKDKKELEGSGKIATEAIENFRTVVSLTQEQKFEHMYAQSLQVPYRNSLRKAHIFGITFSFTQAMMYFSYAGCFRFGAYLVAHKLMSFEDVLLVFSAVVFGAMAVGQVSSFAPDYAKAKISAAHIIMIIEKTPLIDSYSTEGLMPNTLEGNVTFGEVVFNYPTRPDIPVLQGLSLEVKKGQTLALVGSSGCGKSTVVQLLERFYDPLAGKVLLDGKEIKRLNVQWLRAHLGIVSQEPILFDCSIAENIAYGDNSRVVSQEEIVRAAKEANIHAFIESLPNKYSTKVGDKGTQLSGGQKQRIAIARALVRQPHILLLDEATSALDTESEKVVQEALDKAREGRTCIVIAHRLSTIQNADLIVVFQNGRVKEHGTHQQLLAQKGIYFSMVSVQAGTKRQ", "UniProt Q9UNQ0, sequence (whole entry, looked up)": "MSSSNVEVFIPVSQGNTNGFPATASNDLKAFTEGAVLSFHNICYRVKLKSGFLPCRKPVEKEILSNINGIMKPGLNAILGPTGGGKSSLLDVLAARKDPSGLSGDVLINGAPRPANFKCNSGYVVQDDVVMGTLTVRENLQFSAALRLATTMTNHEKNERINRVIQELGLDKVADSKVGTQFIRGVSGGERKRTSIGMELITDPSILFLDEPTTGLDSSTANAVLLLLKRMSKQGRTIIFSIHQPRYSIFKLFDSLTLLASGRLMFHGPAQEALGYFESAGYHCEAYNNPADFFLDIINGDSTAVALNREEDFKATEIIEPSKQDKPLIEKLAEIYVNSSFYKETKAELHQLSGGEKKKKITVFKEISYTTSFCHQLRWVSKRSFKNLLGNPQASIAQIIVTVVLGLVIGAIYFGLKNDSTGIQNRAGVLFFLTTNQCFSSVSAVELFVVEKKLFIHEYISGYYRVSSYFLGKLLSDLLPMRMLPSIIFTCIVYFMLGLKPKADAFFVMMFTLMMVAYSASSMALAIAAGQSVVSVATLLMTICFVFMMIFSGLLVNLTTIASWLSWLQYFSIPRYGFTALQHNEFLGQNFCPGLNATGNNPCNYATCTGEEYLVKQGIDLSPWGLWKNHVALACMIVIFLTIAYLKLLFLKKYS"}
{"SMILES": "c1csc(CNc2cc[nH]n2)c1", "target or system": "human peripheral blood lymphocytes", "setting": "25 µg/mL, 20 h", "endpoint": "numerical aberration cells", "value": "0%"}
{"SMILES": "CC[C@H](CO)N(CCN(N=O)[C@H](CC)CO)N=O", "target or system": "Salmonella typhimurium", "assay": "mutagenicity, Ames plate incorporation", "test system": "TA98", "setting": "50 µg/plate, without S9, methanol", "endpoint": "revertant colonies per plate", "value": "31.7 ± 6"}
{"SMILES": "Cc1cc(Nc2ccc(S(F)(F)(F)(F)F)cc2)n2nc(C(C)(F)F)nc2n1", "target or system": "Plasmodium vivax", "assay": "12-lead ECG", "test system": "malaria patients", "setting": "oral, 600 mg, increase above 60 ms", "endpoint": "patients with QTcF increase", "value": "0%"}
{"SMILES": "CCc1nn(CCCN2CCN(c3cccc(Cl)c3)CC2)c(=O)n1CCOc1ccccc1", "target or system": "HepaRG", "assay": "cytotoxicity, CellTiter-Glo", "setting": "24 h", "endpoint": "EC50", "value": "55.3 µM"}
{"SMILES": "Cc1cc(C(=O)NC(C)(C)COc2cccc3c2C(N)=NS(=O)(=O)N3)cc(C)n1", "target or system": "human peripheral blood lymphocytes", "assay": "CBPI, micronucleus test", "setting": "0.2 µg/mL, 4 h, with rat liver S9", "scale": "baseline: vehicle", "endpoint": "cytotoxicity", "value": "7%"}
{"SMILES": "CC[C@H]1[C@@H](O)[C@@H]2[C@H](CC[C@]3(C)[C@@H]([C@H](C)CCNC(=O)NS(=O)(=O)c4ccc(C(C)(C)C)cc4)CC[C@@H]23)[C@@]2(C)CC[C@@H](O)C[C@@H]12", "target or system": "ABCB1 (Homo sapiens, UniProt P08183)", "test system": "human, plasma", "setting": "dose not given, mean, together with: quinidine", "endpoint": "CL/F", "value": "14.3 L/h"}
{"SMILES": "C[C@]12CCCN1CC1=NNC(=O)c3cc(F)cc4[nH]c2c1c34", "target or system": "ABCG2 (Homo sapiens, UniProt Q9UNQ0)", "assay": "substrate", "test system": "membrane vesicles", "setting": "0.5 µM, together with: AMP", "endpoint": "uptake rate", "value": "0.295 pmol/min/mg"}
{"SMILES": "NS(=O)(=O)c1ccc(NCC(=O)O)cc1", "target or system": "USP49 ZnF-UBD domain", "endpoint": "Kd", "value": "> 1000 µM"}
{"SMILES": "Cc1cc(N)c2c(OCC(C)(C)C(=O)NC(C)C)cccc2n1", "target or system": "Salmonella typhimurium", "assay": "reverse mutation, plate incorporation", "test system": "TA100", "setting": "1000 µg/plate, with rat liver S9", "endpoint": "mean revertant colonies", "value": "77 colonies/plate"}
{"SMILES": "O=C(O)CCn1sc2ccccc2c1=O", "target or system": "USP49 ZnF-UBD domain", "endpoint": "Kd", "value": "> 1000 µM"}
{"SMILES": "O=C1C(Br)=C(Br)C(=O)c2ccccc21", "target or system": "Solanum lycopersicum", "test system": "seeds", "setting": "400 µg/mL, 168 h, 10% DMSO", "endpoint": "germination inhibition", "value": "64.1%"}
{"SMILES": "CC[C@]1(O)C[C@H]2CN(CCc3c([nH]c4ccccc34)[C@@](C(=O)OC)(c3cc4c(cc3OC)N(C=O)[C@H]3[C@@](O)(C(=O)OC)[C@H](OC(C)=O)[C@]5(CC)C=CCN6CC[C@]43[C@@H]65)C2)C1", "target or system": "CHP-212 resistant subline R2 (heterozygous USP7 V517F)", "assay": "cell viability", "setting": "3333.33 nM", "endpoint": "viability", "value": "14.9% and 15.5% and 18.9%"}
{"SMILES": "C[C@]12CC[C@@H]3c4ccc(O)cc4C[C@@H](CCCCCCCCC[S+]([O-])CCCC(F)(F)C(F)(F)F)[C@H]3[C@@H]1CC[C@@H]2O (stereo partly shown)", "target or system": "T47D", "assay": "CCK-8", "setting": "10 nM", "scale": "baseline: untreated", "endpoint": "viability", "value": "86.3% and 78.1% and 85.9%"}
{"note": "Excerpt of the above:"}
{"SMILES": "Cc1cc(C(=O)NC(C)(C)COc2cccc3c2C(N)=NS(=O)(=O)N3)cc(C)n1", "target or system": "human peripheral blood lymphocytes", "assay": "CBPI, micronucleus test", "setting": "0.2 µg/mL, 4 h, with rat liver S9", "scale": "baseline: vehicle", "endpoint": "cytotoxicity", "value": "7%"}
